{"data": "Experimental data pooled from the literature", "note": "Numbered parts are unrelated; each lists some results of a single study. Values joined by “and” are separate records of one study, mostly repeats; a detail may differ."}
{"data": "Sample 1", "Structure (SMILES)": "COc1cc(C(=O)OCCCN2CCCN(CCCOC(=O)c3cc(OC)c(OC)c(OCc4ccc([N+](=O)[O-])cc4)c3)CC2)cc(OC)c1OC"}
{"assay": "von Frey test", "test system": "mouse, CFA inflammatory pain", "conditions": "intraplantar, 10 µg, 24 h post-dose, day 3 after CFA", "paw withdrawal threshold": "0.44 g and 0.23 g and 0.32 g"}
{"assay": "mechanical pain, von Frey test", "test system": "mouse, STZ diabetic neuropathy", "conditions": "intravenous, 30 mg/kg, 24 h post-dose, first injection, day 8", "paw withdrawal threshold": "0.19 g and 0.27 g and 0.08 g and 0.13 g and 0.06 g"}
{"test system": "mice, STZ diabetic neuropathy", "conditions": "intrathecal, 10 nmol, 1 h, with: DPCPX 10 nmol, 30 min before", "paw withdrawal threshold": "0.75 g and 0.59 g and 0.65 g and 0.98 g"}
{"assay": "mechanical pain, von Frey test", "test system": "mouse, STZ diabetic neuropathy", "conditions": "intravenous, 30 mg/kg, 24 h post-dose, third injection", "paw withdrawal threshold": "0.4 g and 0.44 g and 0.36 g"}
{"assay": "von Frey test", "test system": "mouse, CFA inflammatory pain", "conditions": "subcutaneous, 10 mg/kg, 24 h post-dose, second injection, day 3", "paw withdrawal threshold": "0.23 g and 0.32 g and 0.29 g"}
{"assay": "mechanical pain, von Frey test", "test system": "mouse, STZ diabetic neuropathy", "conditions": "intravenous, 30 mg/kg, 5 h post-dose, first injection, day 8", "paw withdrawal threshold": "0.29 g and 0.05 g and 0.2 g and 0.44 g and 0.23 g"}
{"assay": "von Frey test", "test system": "mouse, CFA inflammatory pain", "conditions": "intravenous, dose not given, 1 h post-dose, third injection, day 5", "paw withdrawal threshold": "0.65 g and 0.75 g and 0.59 g and 0.51 g"}
{"assay": "mechanical pain, von Frey test", "test system": "mouse, STZ diabetic neuropathy", "conditions": "intravenous, 30 mg/kg, 1 h post-dose, third injection", "paw withdrawal threshold": "0.44 g and 0.75 g and 1.56 g and 0.4 g and 0.59 g"}
{"assay": "von Frey test", "test system": "mouse, CFA inflammatory pain", "conditions": "intraplantar, 10 µg, 3 h post-dose, day 3 after CFA", "paw withdrawal threshold": "0.98 g and 1.56 g and 1.3 g and 2.23 g and 1.16 g"}
{"data": "Sample 2", "SMILES": "COCC1CC2C(CCC3C(O)CCC32)c2ccc(O)cc21 (centres unmarked)"}
{"cell line": "A549", "technique": "microarray", "measured": "MCM6", "concentration": "25 µM", "relative to": "untreated", "log2 fold change": 0.0734}
{"cell line": "SK-OV-3", "technique": "DNA microarray", "measured": "C6", "concentration": "100 µM", "relative to": "untreated cells", "log2 fold change": 8.46}
{"cell line": "SK-OV-3", "technique": "DNA microarray", "measured": "ADAMTS14", "concentration": "100 µM", "relative to": "untreated", "log2 fold change": 2.3}
{"cell line": "SK-OV-3", "technique": "DNA microarray", "measured": "CCL8", "concentration": "100 µM", "relative to": "untreated control", "log2 fold change": 0}
{"cell line": "SK-OV-3", "technique": "DNA microarray", "measured": "KIF20A", "concentration": "100 µM", "relative to": "untreated cells", "log2 fold change": "-0.104 and -0.0287 and -0.0359 and -0.0728 and -0.0127"}
{"cell line": "PANC-1", "technique": "microarray", "measured": "CCL11", "concentration": "100 µM", "relative to": "untreated", "log2 fold change": 8.43}
{"cell line": "PANC-1", "technique": "microarray", "measured": "AURKA", "concentration": "100 µM", "relative to": "untreated", "log2 fold change": 0.524}
{"cell line": "SK-OV-3", "technique": "DNA microarray", "measured": "MCM10", "concentration": "100 µM", "relative to": "untreated cells", "log2 fold change": -0.449}
{"cell line": "A549", "technique": "microarray", "measured": "CCL11", "concentration": "25 µM", "relative to": "untreated", "log2 fold change": 9.11}
{"cell line": "SK-OV-3", "technique": "microarray", "measured": "RFC3", "concentration": "25 µM", "relative to": "untreated", "log2 fold change": 0.418}
{"cell line": "PANC-1", "technique": "DNA microarray", "measured": "TMEM108", "concentration": "25 µM", "relative to": "untreated cells", "log2 fold change": 1.02}
{"cell line": "PANC-1", "technique": "DNA microarray", "measured": "KIF20A", "concentration": "100 µM", "relative to": "untreated cells", "log2 fold change": "0.512 and 0.537 and 0.532 and 0.542"}
{"cell line": "A549", "technique": "microarray", "measured": "SPC25", "concentration": "100 µM", "relative to": "untreated", "log2 fold change": -0.593}
{"cell line": "A549", "technique": "microarray", "measured": "RFC3", "concentration": "25 µM", "relative to": "untreated", "log2 fold change": 0.38}
{"cell line": "SK-OV-3", "technique": "microarray", "measured": "GZMK", "concentration": "25 µM", "relative to": "untreated", "log2 fold change": 0.304}
{"cell line": "SK-OV-3", "technique": "DNA microarray", "measured": "ACTA2", "concentration": "25 µM", "relative to": "untreated control", "log2 fold change": -0.642}
{"cell line": "A549", "technique": "DNA microarray", "measured": "ACTA2", "concentration": "25 µM", "relative to": "untreated cells", "log2 fold change": -0.155}
{"cell line": "PANC-1", "technique": "DNA microarray", "measured": "ADAMTS14 mRNA", "concentration": "25 µM", "relative to": "control", "log2 fold change": 2.52}
{"cell line": "PANC-1", "technique": "microarray", "measured": "GZMK", "concentration": "100 µM", "relative to": "untreated", "log2 fold change": 0}
{"cell line": "A549", "technique": "DNA microarray", "measured": "MCM10", "concentration": "25 µM", "relative to": "untreated cells", "log2 fold change": 0.192}
{"cell line": "A549", "technique": "microarray", "measured": "GZMK", "concentration": "100 µM", "relative to": "untreated", "log2 fold change": 0}
{"cell line": "A549", "technique": "DNA microarray", "measured": "TMEM108", "concentration": "100 µM", "relative to": "untreated cells", "log2 fold change": 1.58}
{"cell line": "PANC-1", "technique": "microarray", "measured": "SPC25", "concentration": "100 µM", "relative to": "untreated", "log2 fold change": 0.49}
{"cell line": "A549", "technique": "microarray", "measured": "PIF1", "concentration": "25 µM", "relative to": "untreated", "log2 fold change": -0.227}
{"data": "Sample 3", "Compound": "CCN1/C(=C/C=C2\\CCCC(/C=C/C3=[N+](CC)c4ccccc4C3(C)C)=C2NCCCCCCCCN2CCC(Nc3nc4ccccc4n3Cc3ccc(F)cc3)CC2)C(C)(C)c2ccccc21", "cell line": "U-87 MG", "concentration": "concentration not given", "relative to": "DMSO"}
{"measured": "RNF44 mRNA", "log2 fold change": 0.914}
{"measured": "PDE4B mRNA", "log2 fold change": -2}
{"measured": "MCM3 mRNA", "log2 fold change": -1.59}
{"measured": "FSBP mRNA", "log2 fold change": 0.965}
{"measured": "COL5A2 mRNA", "log2 fold change": -1.86}
{"measured": "EPPIN-WFDC6 mRNA", "log2 fold change": -6.03}
{"measured": "NETO1 mRNA", "log2 fold change": 3.48}
{"measured": "SLFN5 mRNA", "log2 fold change": 1.01}
{"measured": "NR2F2 mRNA", "log2 fold change": -1.93}
{"measured": "ADAMTSL4 mRNA", "log2 fold change": -2.01}
{"measured": "RNF103 mRNA", "log2 fold change": 1.03}
{"measured": "RMND5A mRNA", "log2 fold change": 1.58}
{"measured": "SUOX mRNA", "log2 fold change": -0.825}
{"measured": "TNFRSF10B mRNA", "log2 fold change": 1.72}
{"measured": "OSGIN1 mRNA", "log2 fold change": 1.45}
{"measured": "NES mRNA", "log2 fold change": -2.06}
{"data": "Sample 4", "Compound": "Cc1ncsc1-c1ccc(C(CO)NC(=O)C2CC(O)CN2C(=O)C(C(C)C)n2cc(-c3ccc(COc4c(-c5c(C)c(F)cc6[nH]ncc56)c(C5CC5)cc5c(N6CC7CC6CN7)nc(OC6CCOCC6)nc45)cc3)nn2)cc1 (centres unmarked)", "effect on": "cell growth or viability", "technique": "ATP luminescence", "time": "6 days"}
{"cell line": "SK-CO-1", "concentration": "1 nM", "viability": "106% and 103% and 102% and 93.9%"}
{"cell line": "A-375", "concentration": "3 nM", "viability": "87.7% and 85.1% and 99.9% and 83%"}
{"cell line": "NCI-H358", "concentration": "0.1 µM", "viability": "85.1% and 64.6% and 50.8% and 67.3%"}
{"cell line": "HT-29", "concentration": "1 nM", "viability": "118% and 100% and 119% and 90.4%"}
{"cell line": "LCLC-97TM1", "concentration": "1 µM", "viability": "45.4% and 61.8% and 40.4% and 33.6%"}
{"cell line": "SK-CO-1", "concentration": "100 pM", "viability": "76.9% and 111% and 115% and 119%"}
{"cell line": "PaTu 8902", "concentration": "3 nM", "viability": "108% and 85.9% and 103% and 105%"}
{"cell line": "T24", "concentration": "10 nM", "viability": "101% and 99.6% and 92.5% and 98.8%"}
{"cell line": "T24", "concentration": "3 nM", "viability": "102% and 101% and 95% and 98.7%"}
{"cell line": "A-375", "concentration": "0.3 µM", "viability": "90.1% and 86.1% and 93.2% and 84.1%"}
{"note": "A few entries again (sample 1):"}
{"assay": "von Frey test", "test system": "mouse, CFA inflammatory pain", "conditions": "intravenous, dose not given, 1 h post-dose, third injection, day 5", "paw withdrawal threshold": "0.65 g and 0.75 g and 0.59 g and 0.51 g"}
{"assay": "mechanical pain, von Frey test", "test system": "mouse, STZ diabetic neuropathy", "conditions": "intravenous, 30 mg/kg, 1 h post-dose, third injection", "paw withdrawal threshold": "0.44 g and 0.75 g and 1.56 g and 0.4 g and 0.59 g"}
{"assay": "von Frey test", "test system": "mouse, CFA inflammatory pain", "conditions": "intraplantar, 10 µg, 3 h post-dose, day 3 after CFA", "paw withdrawal threshold": "0.98 g and 1.56 g and 1.3 g and 2.23 g and 1.16 g"}
